Results gathered from unrelated publications.
Each line is one published result; not all experiments were run side by side. “And” joins repeats or separate records; there may be more than shown.
Target: Casein kinase II subunit alpha' (CSNK2A2, Homo sapiens, UniProt P19784)

| SMILES | assay | test system | conditions | scale | endpoint | result |
| --- | --- | --- | --- | --- | --- | --- |
| O=C(O)CCC(=O)c1cccc(NS(=O)(=O)c2c[nH]c3ncccc23)c1 | kinase activity, radiometric | – | 10 µM | – | remaining activity | 112% |
| COc1c(OCCCN2CCOCC2)ccc2c1N=C(NC(=O)c1cnc(N)nc1)N1CCN=C21 | kinase activity, inhibitor | – | 1 µM | baseline: untreated control | remaining activity | 109% |
| O=C(Cc1ccc(OCc2ccccc2)cc1)NC1(C(=O)O)CCN(C(=O)c2ccc(-c3cccc(Cl)c3)cc2)CC1 | enzyme activity, inhibitor | – | 10 µM | – | activity vs control | 110% |
| Nc1ncc(-c2cc(-c3cnn(CC(F)(F)F)c3)ncc2F)nc1C(=O)NC1CNCC(F)C1 (centres unmarked) | enzyme activity | – | 1 µM | baseline: DMSO control | remaining activity | 91.2% |
| C=CC(=O)N1CCc2ccc(-n3c(=O)ccc4cnc5ccc(-c6cnn(C)c6)cc5c43)cc21 | KINOMEscan | – | 1 µM | baseline: DMSO control | remaining binding | 64% |
| CNC(=O)C[C@H](Cc1ccc(C#N)cc1)NC(=O)c1cc(-c2ccc(CN[C@H](C)c3ccc(C)cc3)o2)ccc1Cl | enzyme activity, inhibitor | – | 1 µM | – | activity vs control | 107% |
| CNC(=O)C1CCN(c2cc(C)c(F)cc2NC(=O)c2ccc(-c3cc(O)ccc3C)c(C)c2)CC1 | binding, competition with immobilised ligand | – | 1 µM | – | remaining binding | 100% |
| COCC12C(=O)NC3C4(C(OC)CC1O)C1CC5(O)C(OC)C(O)C(OC(C)=O)(C1C5OC(=O)c1ccccc1)C3(O)C(OC)C24 (centres unmarked) | kinase activity, inhibitor, ProQinase kinase profiling | – | 25 µM | baseline: control | remaining activity | 97% and 100% |
| COC(=O)[C@@]1(C)C=C(C(=O)Nc2cccc(C(=O)Nc3ccc(Nc4nccc(-c5cccnc5)n4)c(C)c3)c2)C(=O)CC1 | enzyme activity, inhibitor, radiometric | – | 1 µM | – | remaining activity | 99% |
| N[C@H]1CC[C@H](Nc2nccc(-c3cccnc3Oc3ccc(NC(=O)NC4CC4)c4ccccc34)n2)CC1 | kinobead competition pulldown | HEK293/HCT116 lysate mixture | 10 µM, 1 h, 4 °C | lower = stronger competition | log2 LFQ intensity | 31.2 and 31 and 30.9 |
| NC(=O)[C@@H](O)C[C@H]1CCc2sc3ncnc(O[C@H]4CC[C@H](N5CCOCC5)CC4)c3c21 | enzyme activity, inhibitor | – | 10 µM | – | inhibition | 24% |
| C=CC(=O)N1Cc2nc(-c3cc(-c4cc(Cl)cnc4Cl)c(F)cc3F)n(-c3ccncn3)c2C1 | cell-free assay, inhibitor | – | 1 µM | – | inhibition | 8.2% |
| COc1cc(Nc2nccc(-c3cnn4nc(OC)ccc34)n2)cc(C(F)(F)F)c1 | binding, competition with immobilised ligand | – | 1 µM | – | remaining binding | 65% |
| CNC1C[S+]2CC[S+]3CC[S+](C1)[Ru-4]321([N]=C=S)[n]2c3ccc(OC)cc3c3c4c(c5cc(F)c[n+]1c5c32)C(=O)NC4=O (centres unmarked) | KinomeScan | – | 0.1 µM | baseline: untreated | remaining binding | 78% |

Repeated from above:
| SMILES | assay | test system | conditions | scale | endpoint | result |
| --- | --- | --- | --- | --- | --- | --- |
| NC(=O)[C@@H](O)C[C@H]1CCc2sc3ncnc(O[C@H]4CC[C@H](N5CCOCC5)CC4)c3c21 | enzyme activity, inhibitor | – | 10 µM | – | inhibition | 24% |
| C=CC(=O)N1Cc2nc(-c3cc(-c4cc(Cl)cnc4Cl)c(F)cc3F)n(-c3ccncn3)c2C1 | cell-free assay, inhibitor | – | 1 µM | – | inhibition | 8.2% |
